Measurements pooled from the literature.
Protocols differ between the studies behind these lines. Several values in a cell are separate wells, animals, samples, runs or records. ± gives the spread as reported.
HTR6: 5-hydroxytryptamine receptor 6 (HTR6, Homo sapiens, UniProt P50406)
Sequence of UniProt P50406 (whole entry, looked up): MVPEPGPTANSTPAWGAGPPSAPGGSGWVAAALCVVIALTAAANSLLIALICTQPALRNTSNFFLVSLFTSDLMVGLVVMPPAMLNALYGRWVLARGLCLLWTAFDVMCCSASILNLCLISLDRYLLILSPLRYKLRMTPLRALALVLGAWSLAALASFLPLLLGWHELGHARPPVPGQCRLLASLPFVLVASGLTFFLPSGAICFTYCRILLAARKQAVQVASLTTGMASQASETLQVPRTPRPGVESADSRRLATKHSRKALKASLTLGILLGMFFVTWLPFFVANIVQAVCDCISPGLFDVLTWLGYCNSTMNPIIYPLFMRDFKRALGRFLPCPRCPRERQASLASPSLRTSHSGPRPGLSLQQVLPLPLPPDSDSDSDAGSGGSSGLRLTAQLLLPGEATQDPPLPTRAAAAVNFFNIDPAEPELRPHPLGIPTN
KCNJ2: Inward rectifier potassium channel 2 (KCNJ2, Homo sapiens, UniProt P63252)
Sequence of UniProt P63252 (whole entry, looked up): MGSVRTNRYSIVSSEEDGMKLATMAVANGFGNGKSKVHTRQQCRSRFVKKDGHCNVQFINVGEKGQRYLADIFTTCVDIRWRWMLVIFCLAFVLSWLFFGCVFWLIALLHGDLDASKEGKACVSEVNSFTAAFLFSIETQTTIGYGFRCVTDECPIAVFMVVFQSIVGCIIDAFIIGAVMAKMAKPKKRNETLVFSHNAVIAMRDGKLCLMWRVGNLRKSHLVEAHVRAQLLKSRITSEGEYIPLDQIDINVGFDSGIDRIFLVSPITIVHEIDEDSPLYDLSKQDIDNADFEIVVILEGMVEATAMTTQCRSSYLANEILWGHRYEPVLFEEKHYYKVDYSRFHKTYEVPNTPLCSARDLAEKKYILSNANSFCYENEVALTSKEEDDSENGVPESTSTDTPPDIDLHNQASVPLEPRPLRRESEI
NT5E membrane-bound form: 5'-nucleotidase, membrane-bound form (NT5E, Homo sapiens, UniProt P21589)
Sequence of UniProt P21589 (whole entry, looked up): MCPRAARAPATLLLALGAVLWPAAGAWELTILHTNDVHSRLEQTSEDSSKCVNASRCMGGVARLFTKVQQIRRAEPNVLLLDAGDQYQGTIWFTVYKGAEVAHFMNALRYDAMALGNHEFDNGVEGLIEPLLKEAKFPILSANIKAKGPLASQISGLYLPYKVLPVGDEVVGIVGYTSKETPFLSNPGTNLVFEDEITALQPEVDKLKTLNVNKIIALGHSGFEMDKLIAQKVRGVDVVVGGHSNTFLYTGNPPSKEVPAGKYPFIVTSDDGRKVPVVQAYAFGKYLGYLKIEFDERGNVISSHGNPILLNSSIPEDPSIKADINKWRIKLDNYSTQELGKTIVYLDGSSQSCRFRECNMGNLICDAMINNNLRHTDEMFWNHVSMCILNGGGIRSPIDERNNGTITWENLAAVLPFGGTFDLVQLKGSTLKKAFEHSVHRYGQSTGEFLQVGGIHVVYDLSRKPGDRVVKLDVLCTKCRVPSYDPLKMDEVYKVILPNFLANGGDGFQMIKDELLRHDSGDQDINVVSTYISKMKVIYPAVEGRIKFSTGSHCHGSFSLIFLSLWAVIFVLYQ
SIRT5: NAD-dependent protein deacylase sirtuin-5, mitochondrial (SIRT5, Homo sapiens, UniProt Q9NXA8)
Sequence of UniProt Q9NXA8 (whole entry, looked up): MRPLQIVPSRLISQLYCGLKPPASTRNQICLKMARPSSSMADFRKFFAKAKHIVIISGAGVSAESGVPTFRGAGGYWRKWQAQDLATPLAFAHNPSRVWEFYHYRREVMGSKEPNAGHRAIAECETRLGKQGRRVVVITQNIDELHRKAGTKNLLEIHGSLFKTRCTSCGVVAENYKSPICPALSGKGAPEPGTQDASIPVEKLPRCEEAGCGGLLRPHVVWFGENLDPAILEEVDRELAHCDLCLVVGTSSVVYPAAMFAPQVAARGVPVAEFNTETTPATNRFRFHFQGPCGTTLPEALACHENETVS
CECR2: Chromatin remodeling regulator CECR2 (CECR2, Homo sapiens, UniProt Q9BXF3)
CSNK1E: Casein kinase I isoform epsilon (CSNK1E, Homo sapiens, UniProt P49674)
Sequence of UniProt P49674 (whole entry, looked up): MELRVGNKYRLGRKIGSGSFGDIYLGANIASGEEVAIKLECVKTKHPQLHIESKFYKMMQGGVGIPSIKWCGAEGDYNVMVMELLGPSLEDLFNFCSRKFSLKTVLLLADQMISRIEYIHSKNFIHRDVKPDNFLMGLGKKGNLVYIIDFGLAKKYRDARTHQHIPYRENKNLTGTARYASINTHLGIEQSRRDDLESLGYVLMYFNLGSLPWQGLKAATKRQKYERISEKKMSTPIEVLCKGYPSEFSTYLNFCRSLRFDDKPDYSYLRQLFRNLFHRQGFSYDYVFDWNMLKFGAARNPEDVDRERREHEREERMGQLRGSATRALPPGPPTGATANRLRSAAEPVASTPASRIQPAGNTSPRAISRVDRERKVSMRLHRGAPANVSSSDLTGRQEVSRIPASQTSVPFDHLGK
HRH2: Histamine H2 receptor (HRH2, Homo sapiens, UniProt P25021)
Sequence of UniProt Q8IWT6 (whole entry, unmodified, looked up): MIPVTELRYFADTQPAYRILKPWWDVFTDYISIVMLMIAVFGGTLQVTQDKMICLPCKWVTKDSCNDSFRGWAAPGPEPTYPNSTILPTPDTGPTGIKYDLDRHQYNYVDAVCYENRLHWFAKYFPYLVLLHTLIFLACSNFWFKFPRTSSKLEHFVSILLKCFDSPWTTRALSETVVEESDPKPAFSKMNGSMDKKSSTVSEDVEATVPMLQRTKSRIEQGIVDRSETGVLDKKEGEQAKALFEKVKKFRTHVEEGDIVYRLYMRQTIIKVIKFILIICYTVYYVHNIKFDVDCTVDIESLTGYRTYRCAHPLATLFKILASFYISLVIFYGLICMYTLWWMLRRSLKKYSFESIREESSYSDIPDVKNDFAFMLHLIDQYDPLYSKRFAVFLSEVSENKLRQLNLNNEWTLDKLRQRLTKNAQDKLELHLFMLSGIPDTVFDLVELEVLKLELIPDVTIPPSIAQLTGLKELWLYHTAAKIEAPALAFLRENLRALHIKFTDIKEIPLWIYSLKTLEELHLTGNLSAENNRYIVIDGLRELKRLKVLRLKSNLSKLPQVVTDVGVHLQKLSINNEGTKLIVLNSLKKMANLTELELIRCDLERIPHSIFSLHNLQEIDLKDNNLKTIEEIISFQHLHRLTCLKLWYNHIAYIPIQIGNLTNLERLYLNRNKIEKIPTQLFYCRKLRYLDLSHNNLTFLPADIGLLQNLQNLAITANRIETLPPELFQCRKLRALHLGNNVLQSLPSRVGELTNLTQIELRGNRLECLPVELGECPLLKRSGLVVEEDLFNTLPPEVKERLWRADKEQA
Sequence of UniProt P25021 (whole entry, looked up): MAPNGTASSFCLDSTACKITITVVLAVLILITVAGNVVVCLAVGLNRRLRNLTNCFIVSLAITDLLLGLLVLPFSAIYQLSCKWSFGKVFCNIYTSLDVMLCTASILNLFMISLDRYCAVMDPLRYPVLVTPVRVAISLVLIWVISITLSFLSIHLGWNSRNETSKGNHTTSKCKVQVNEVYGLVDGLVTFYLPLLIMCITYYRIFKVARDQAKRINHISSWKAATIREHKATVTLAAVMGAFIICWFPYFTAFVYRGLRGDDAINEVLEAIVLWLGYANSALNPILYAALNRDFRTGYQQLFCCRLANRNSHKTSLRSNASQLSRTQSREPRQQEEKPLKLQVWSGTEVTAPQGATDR
Sequence of UniProt Q9H813 (whole entry, looked up): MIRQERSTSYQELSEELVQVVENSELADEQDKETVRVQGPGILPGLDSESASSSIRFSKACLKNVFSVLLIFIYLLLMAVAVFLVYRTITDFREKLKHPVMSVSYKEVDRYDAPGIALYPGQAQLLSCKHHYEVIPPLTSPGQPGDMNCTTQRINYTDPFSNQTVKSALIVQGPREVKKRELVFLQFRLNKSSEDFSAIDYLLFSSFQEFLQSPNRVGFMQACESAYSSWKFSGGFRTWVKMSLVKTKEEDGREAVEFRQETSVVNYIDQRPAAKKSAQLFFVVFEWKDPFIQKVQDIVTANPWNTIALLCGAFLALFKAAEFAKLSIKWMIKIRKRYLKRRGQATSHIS
Sequence of UniProt P21127 (whole entry, looked up): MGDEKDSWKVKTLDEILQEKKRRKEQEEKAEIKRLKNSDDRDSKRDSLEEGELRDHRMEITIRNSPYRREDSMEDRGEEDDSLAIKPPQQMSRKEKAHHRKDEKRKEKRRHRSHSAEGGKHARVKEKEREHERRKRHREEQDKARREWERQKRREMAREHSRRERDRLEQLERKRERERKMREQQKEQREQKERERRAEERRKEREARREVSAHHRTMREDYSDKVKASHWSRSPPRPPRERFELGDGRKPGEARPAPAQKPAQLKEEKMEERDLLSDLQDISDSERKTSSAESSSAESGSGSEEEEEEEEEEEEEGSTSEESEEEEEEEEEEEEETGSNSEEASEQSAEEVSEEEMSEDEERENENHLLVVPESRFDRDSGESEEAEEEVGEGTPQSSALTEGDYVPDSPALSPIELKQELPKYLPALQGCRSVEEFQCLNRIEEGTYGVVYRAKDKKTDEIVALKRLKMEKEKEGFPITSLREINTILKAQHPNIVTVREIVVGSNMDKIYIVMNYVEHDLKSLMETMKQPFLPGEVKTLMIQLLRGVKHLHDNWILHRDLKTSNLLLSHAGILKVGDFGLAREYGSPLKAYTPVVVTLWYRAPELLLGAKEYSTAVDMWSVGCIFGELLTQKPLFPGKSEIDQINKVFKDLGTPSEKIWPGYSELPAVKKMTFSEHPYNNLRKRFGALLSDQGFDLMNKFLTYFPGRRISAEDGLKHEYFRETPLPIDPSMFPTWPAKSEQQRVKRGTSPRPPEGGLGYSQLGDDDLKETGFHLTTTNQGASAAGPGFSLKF
Sequence of UniProt P14867 (whole entry, looked up): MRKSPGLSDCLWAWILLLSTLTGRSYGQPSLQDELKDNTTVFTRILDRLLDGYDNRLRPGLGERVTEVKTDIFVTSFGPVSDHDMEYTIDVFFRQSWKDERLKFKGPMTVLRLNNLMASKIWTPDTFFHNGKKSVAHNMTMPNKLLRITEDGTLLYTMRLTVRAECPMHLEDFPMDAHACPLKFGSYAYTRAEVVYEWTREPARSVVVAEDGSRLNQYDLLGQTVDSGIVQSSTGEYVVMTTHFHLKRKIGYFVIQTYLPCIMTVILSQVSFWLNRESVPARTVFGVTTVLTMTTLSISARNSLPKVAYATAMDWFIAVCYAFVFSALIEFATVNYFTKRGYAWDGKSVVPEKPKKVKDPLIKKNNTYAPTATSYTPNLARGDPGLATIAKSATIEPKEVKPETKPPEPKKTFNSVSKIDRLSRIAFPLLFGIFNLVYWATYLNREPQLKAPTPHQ

O=C1NC(=O)C2(N1)c1ccccc1-c1ccccc12  inhibition (GABA-A receptor alpha-1/beta-3, with gamma-2 subunit (GABRA1/GABRB3, Homo sapiens, UniProt P14867+P28472); concentration not given, α1β3γ2 receptor): 35%
Cc1ccc(OC[C@@H]2CN(CCN3CCc4ccccc43)CCO2)cn1  inhibition (HTR6; radioligand binding; concentration not given, added: [3H]LSD): 8.5%
CC(C)c1noc2ncc(C(=O)c3ccccc3O)cc12  inhibition (KCNJ2; ion current, whole-cell patch-clamp; 10 µM, hKir2.1): 2.22%
Cn1cc(-c2cnc3ccc(NC(=O)Nc4ccc(F)c(Br)c4)cc3n2)cn1  inhibition (MAP3K3 (Homo sapiens, UniProt Q99759); kinase binding, KiNativ profiling, measured: Lys1 peptide; PANC-1 lysate; 7.5 µM): 21.1%
COc1cc(Cl)c(C(=O)N[C@@H](CN[C@H]2CC[C@@H](N)CC2)Cc2ccc(C#N)cc2)cc1-c1ccc(CN[C@H](C)c2ccc(C)cc2)o1  inhibition (ADORA3 (Homo sapiens, UniProt P0DMS8); agonist response, antagonist; human cells; 10 µM, A3 antagonist): -10%
COc1cc(-c2cc(-c3ccc(N4CCNCC4)cc3)cnc2C)cc(OC)c1OC  inhibition (Mitogen-activated protein kinase kinase kinase 7, with TAB1 (MAP3K7, Homo sapiens, UniProt O43318); kinome profiling; 0.1 µM): 1%
Nc1c(C(=O)Nc2nccs2)sc2nc(-c3ccccc3)cc(C(F)(F)F)c12  inhibition (NT5E membrane-bound form; CD73 activity, inhibitor, malachite green phosphate; MDA-MB-231; 100 µM, added: 200 µM AMP): 16 ± 7%
Clc1cncc(OC[C@@H]2CN(CCN3CCc4ccccc43)CCO2)c1  inhibition (HTR6; radioligand binding; concentration not given, added: [3H]LSD): 10.6%
COC(=O)c1ccc(NC(=O)c2sc3nc(C)cc(C)c3c2N)cc1  inhibition (NT5E membrane-bound form; CD73 activity, inhibitor, malachite green phosphate; MDA-MB-231; 100 µM, added: 200 µM AMP): 44 ± 7%
CN(C(=O)n1cnc(-c2ccc[n+]([O-])c2)c1)C1CCCCC1  inhibition (AGTR1 (Homo sapiens, UniProt P30556); 10 µM): 2.6%
Cc1cc(-c2ccccc2)c2c(N)c(C(=O)Nc3ccon3)sc2n1  inhibition (NT5E membrane-bound form; CD73 activity, inhibitor, malachite green phosphate; MDA-MB-231; 100 µM, added: 200 µM AMP): 25 ± 4%
CN1CCN(c2cc(-c3ccncc3)c(-c3ccc4ccccc4c3)nn2)CC1  inhibition (CCR1 (Homo sapiens, UniProt P32246); antagonist, FLIPR; 10 µM): 4.3%
COc1cc(C(=O)NS(=O)(=O)c2ccccc2C)ccc1Cc1cn(C)c2ccc(NC(=O)OC3CCCC3)cc12  inhibition (Volume-regulated anion channel subunit LRRC8C, part LRRC8A IL1 chimera (LRRC8C, Homo sapiens, UniProt Q8TDW0, E6A); ion current, inhibitor, whole-cell patch clamp; HCT LRRC8-/- cells; 30 µM, +100 mV): 96.3% and 99.3% and 95.6% and 97.9% and 93.6% and 93.4%
CCCCCCCCCCCCNC(=S)NCCCC[C@H](NS(C)(=O)=O)C(=O)N[C@@H](C)C(=O)N[C@@H](CCCNC(=N)N)C(N)=O  inhibition (SIRT5; enzyme activity, inhibitor; 100 µM): < 5%
O=C(Nc1cccc2c(=O)cc(-c3nnn[nH]3)oc12)c1ccc(OCCCCc2ccccc2)cc1  inhibition (LRRC8A/LRRC8C (Homo sapiens, UniProt Q8IWT6+Q8TDW0, Y124F/Y126F); ion current, whole-cell patch clamp; HCT LRRC8-/- cells; 0.3 µM, -100 mV, Y124F/Y126F heteromers): -8.96% and 5.22% and 26.9% and -8.53% and -12.8% and -10.2%
O=C(C#Cc1cn(Cc2ccccc2)c(=O)[nH]c1=O)NCc1cccc(F)c1  inhibition (Collagenase 3 (MMP13, Homo sapiens, UniProt P45452); 6.5 µM): 32 ± 4%
COc1cc(-c2cc(C(C)=O)n3ccccc23)c(OC)cc1Cn1ccnc1  inhibition (CECR2; 1 µM): 99.6%
COc1nc(NCc2cn(-c3ccc(C(=O)Nc4ccccc4)cc3)nn2)nc(OC)n1  inhibition (Stromelysin-2 (Homo sapiens, UniProt P09238); inhibitor; 0.1 µM): 0.695 ± 0.09%
Cc1ccc2c(c1)C(=O)[C@]1(O)CCN(c3ccc4nc(C)ccc4c3)C1=N2.Cl  inhibition (KCNJ2; concentration not given): < 25%
Cc1cccc(-c2nc[nH]c2-c2ccncc2)c1  inhibition (CSNK1E; kinase activity; 1 µM): 42%
O=C(NO)c1ccc(CN2CCCCc3ccccc32)c(F)c1  inhibition (HRH2; radioligand binding, radioligand displacement; 10 µM, mean of replicates): -7.8%
Cc1ccc(C(=O)Nc2nc3ccccc3[nH]2)cc1  inhibition (ADORA2A (Homo sapiens, UniProt P29274); 30 µM): 21 ± 4%
c1cc(N2CCN(CCCOc3ccc(CN4CCOCC4)cc3)CC2)c2ccsc2c1  inhibition (HTR6; 10 µM): 91.3 ± 2.4%
Fc1ccc(-c2c(-c3ccncc3)ncn2-c2ccc3ccccc3c2)cc1  inhibition (CSNK1E; inhibitor; 1 µM): 59%
Cc1cc(C)c2c(N)c(C(=O)Nc3cccnc3)sc2n1  inhibition (NT5E membrane-bound form; CD73 activity, inhibitor, malachite green phosphate; MDA-MB-231; 100 µM, added: 200 µM AMP): 16 ± 6%
Cc1ccc(C(=O)Nc2ccc3ccccc3c2)o1  inhibition (PACC1 (Homo sapiens, UniProt Q9H813); ion current, inhibitor, whole-cell patch clamp; 10 µM): 1.88% and 0.97% and 0% and 2.44% and 7.4%
CCN1/C(=C/C(C)=O)Sc2ccc(F)cc21  inhibition (HRH2; 10 µM): 1.39%
O=C(CN1CCO[C@H](COc2ccccc2)C1)N1CCc2ccccc21  inhibition (HTR6; radioligand binding; concentration not given, added: [3H]LSD): 26.7%
Cc1cccc(NC(=O)c2sc3nc(C)cc(C(F)(F)F)c3c2N)n1  inhibition (NT5E membrane-bound form; CD73 activity, inhibitor, malachite green phosphate; MDA-MB-231; 100 µM, added: 200 µM AMP): 33 ± 9%
Fc1ccc(-c2ncn(C3=CCCCC3)c2-c2ccncc2)cc1  inhibition (CSNK1E; inhibitor; 1 µM): 84%
O=C(NC1CCC1)[C@H](Cc1c[nH]c2ccccc12)NC(=O)[C@H](CCCCNC(=S)NCCCO)NS(=O)(=O)c1cccc(F)c1  inhibition (SIRT5; enzyme activity, inhibitor; 100 µM): 9%
O=C(c1ccc(F)cc1)N(Cc1ccccc1)C1CCCCC1  inhibition (Grin1 (Rattus norvegicus, UniProt P35439); 10 µM): 4%
Cc1cc(C(F)(F)F)c2c(N)c(C(=O)Nc3ccccc3)sc2n1  inhibition (NT5E membrane-bound form; CD73 activity, inhibitor, malachite green phosphate; MDA-MB-231; 100 µM, added: 200 µM AMP): 19 ± 5%
CC[C@@H]1[C@H](F)C(=O)N[C@@H]1COc1nccc2cc(C(N)=O)c(OC)cc12  inhibition (PRKD2 (Homo sapiens, UniProt Q9BZL6); ATP-site probe binding, ActivX profiling, measured: PKD2; THP-1 cell lysate; 0.04 mM, Lys1 site): 12.3%
NC/C(=C\F)COc1cccc(Cn2c(=S)[nH]c(=O)c3[nH]cnc32)c1  inhibition (Amine oxidase copper-containing 3 (Canis lupus familiaris, UniProt A0A8I3MYY3); inhibitor; dog adipose tissue; 3 µM): 104%
Cn1cc(-c2ccc(-c3cncc(Cl)c3N3CCC4(CCNC4=O)CC3)cc2)cn1  log2 fold change (COLO 205; gene expression, microarray, measured: ITGB1BP2 mRNA; concentration not given, 6 h; relative to: untreated cells): -2.15
CCOC(=O)c1ccc(NC(=O)CCSc2nc(C)cc(C)c2C#N)cc1  inhibition (NT5E membrane-bound form; CD73 activity, inhibitor, malachite green phosphate; MDA-MB-231; 100 µM, added: 200 µM AMP): 24 ± 2%
CC(=O)ON=C1C=CC(=C(C#N)c2ccccc2)C=C1  inhibition (CSNK1E; kinase activity, inhibitor, ADP-Glo; 20 µM): 40%
COc1ccccc1N1CCN(CCCCN2CCc3ccccc3C2=O)CC1  inhibition (HTR6; radioligand binding; concentration not given, added: [3H]LSD): 14.8%
O=C(NC1CCC1)[C@H](Cc1c[nH]c2ccccc12)NC(=O)[C@H](CCCCNC(=S)NCCc1cc(O)no1)NS(=O)(=O)c1cccc(F)c1  inhibition (SIRT5; enzyme activity, inhibitor; 100 µM): 69%
COc1ccc2c(c1)C(=O)N(CCN1CCN(c3ccccc3OC)CC1)C2  inhibition (HTR6; radioligand binding; concentration not given, added: [3H]LSD): -15.8%
CCS(=O)(=O)c1nc(S(=O)(=O)c2ccccc2Cl)c(N2CCN(C)C(=O)[C@H]2C)s1  inhibition (HRH2; 10 µM): 1.06%
NC(=O)c1ccc(-c2nc(-c3ccc4c(c3)OCO4)c(-c3ccccn3)[nH]2)cc1  inhibition (CSNK1E; inhibitor; 1 µM): 56%
CNc1cc(Oc2cc(C(=O)Nc3cc(N4CCN(C)CC4)cc(C(F)(F)F)c3)ccc2C)ncn1  inhibition (CDK11B (Homo sapiens, UniProt P21127); kinase activity; 1 µM): -15%
Cc1ncccc1OC[C@@H]1CN(CCN2CCc3ccccc32)CCO1  inhibition (HTR6; radioligand binding; concentration not given, added: [3H]LSD): 7.6%
Cc1cc2c(cc1N1C(=O)c3cccc4c(CCCO)ccc(c34)C1=O)n(C)c(=O)n2C (racemic)  inhibition (CECR2; binding, BROMOscan binding; 1000 nM): 15%

A few entries again:
Cc1ncccc1OC[C@@H]1CN(CCN2CCc3ccccc32)CCO1  inhibition (HTR6; radioligand binding; concentration not given, added: [3H]LSD): 7.6%
O=C1NC(=O)C2(N1)c1ccccc1-c1ccccc12  inhibition (GABA-A receptor alpha-1/beta-3, with gamma-2 subunit (GABRA1/GABRB3, Homo sapiens, UniProt P14867+P28472); concentration not given, α1β3γ2 receptor): 35%
COc1cc(-c2cc(-c3ccc(N4CCNCC4)cc3)cnc2C)cc(OC)c1OC  inhibition (Mitogen-activated protein kinase kinase kinase 7, with TAB1 (MAP3K7, Homo sapiens, UniProt O43318); kinome profiling; 0.1 µM): 1%
Fc1ccc(-c2c(-c3ccncc3)ncn2-c2ccc3ccccc3c2)cc1  inhibition (CSNK1E; inhibitor; 1 µM): 59%
Cc1cc(C)c2c(N)c(C(=O)Nc3cccnc3)sc2n1  inhibition (NT5E membrane-bound form; CD73 activity, inhibitor, malachite green phosphate; MDA-MB-231; 100 µM, added: 200 µM AMP): 16 ± 6%
